Literature values as cited in several papers.
Each line is one published result; not all experiments were run side by side.
Chain of UniProt Q13233 (whole entry, looked up): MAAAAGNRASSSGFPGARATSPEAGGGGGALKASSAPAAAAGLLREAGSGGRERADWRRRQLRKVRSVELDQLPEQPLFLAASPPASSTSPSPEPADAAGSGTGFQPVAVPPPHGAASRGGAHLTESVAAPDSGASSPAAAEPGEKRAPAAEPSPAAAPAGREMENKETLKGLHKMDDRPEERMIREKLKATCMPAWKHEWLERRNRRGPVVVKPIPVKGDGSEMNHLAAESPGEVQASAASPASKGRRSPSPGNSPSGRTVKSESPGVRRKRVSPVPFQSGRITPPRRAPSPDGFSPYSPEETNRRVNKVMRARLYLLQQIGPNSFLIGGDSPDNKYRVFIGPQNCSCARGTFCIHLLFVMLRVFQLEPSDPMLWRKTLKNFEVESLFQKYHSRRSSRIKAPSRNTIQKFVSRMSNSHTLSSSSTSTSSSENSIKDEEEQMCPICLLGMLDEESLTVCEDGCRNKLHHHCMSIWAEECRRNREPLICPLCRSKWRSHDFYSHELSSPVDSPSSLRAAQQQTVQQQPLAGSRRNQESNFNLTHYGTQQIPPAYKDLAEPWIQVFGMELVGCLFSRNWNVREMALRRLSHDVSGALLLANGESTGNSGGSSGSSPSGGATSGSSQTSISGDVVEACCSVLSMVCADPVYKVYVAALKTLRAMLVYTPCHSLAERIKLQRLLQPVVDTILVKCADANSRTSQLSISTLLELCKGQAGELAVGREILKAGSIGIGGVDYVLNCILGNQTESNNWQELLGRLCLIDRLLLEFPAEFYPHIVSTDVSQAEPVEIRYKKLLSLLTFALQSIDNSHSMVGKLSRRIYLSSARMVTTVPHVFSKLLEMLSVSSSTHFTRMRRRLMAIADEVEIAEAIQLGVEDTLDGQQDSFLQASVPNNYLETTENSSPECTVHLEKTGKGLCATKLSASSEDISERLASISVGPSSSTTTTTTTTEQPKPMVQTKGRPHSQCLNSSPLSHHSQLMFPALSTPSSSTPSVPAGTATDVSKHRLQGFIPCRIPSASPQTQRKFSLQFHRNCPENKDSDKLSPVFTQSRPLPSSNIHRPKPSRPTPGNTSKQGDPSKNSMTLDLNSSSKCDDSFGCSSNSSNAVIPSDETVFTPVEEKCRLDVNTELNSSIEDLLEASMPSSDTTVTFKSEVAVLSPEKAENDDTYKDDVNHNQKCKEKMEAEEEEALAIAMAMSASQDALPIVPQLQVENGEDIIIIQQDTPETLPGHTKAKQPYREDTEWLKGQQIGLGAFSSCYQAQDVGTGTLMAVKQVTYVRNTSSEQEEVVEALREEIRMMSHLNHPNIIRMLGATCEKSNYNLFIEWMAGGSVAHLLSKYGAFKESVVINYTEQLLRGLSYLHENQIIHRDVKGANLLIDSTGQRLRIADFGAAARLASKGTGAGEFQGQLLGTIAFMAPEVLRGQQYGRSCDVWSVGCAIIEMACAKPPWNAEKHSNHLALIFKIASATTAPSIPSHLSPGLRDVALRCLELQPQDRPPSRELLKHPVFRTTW

Structure (SMILES) | target | assay | system | setting | scale | quantity | result
CC(O)C(C)n1ncn(-c2ccc(N3CCN(c4ccc(OCC5COC(Cn6cncn6)(c6ccc(Cl)cc6Cl)O5)cc4)CC3)cc2)c1=O (stereo not shown) | CYP3A4 | inhibitor | – | Simcyp input parameter | – | Ki | 4.6 nM
C#C[C@]1(O)CC[C@H]2[C@@H]3CCC4=CC(=NO)CC[C@@H]4[C@H]3CC[C@@]21CC (mixture of isomers) | CYP3A4 | – | – | – | – | fraction metabolized | 0.57
FC1(F)C(F)(F)C(F)(F)C2(F)C(F)(F)C(F)(F)C(F)(F)C(F)(F)C2(F)C1(F)F (stereo not shown) | CYP3A4 | inhibitor | – | Tox21 screening | – | IC50 | inactive
COc1cc2c(Oc3ccc4[nH]c(C)cc4c3F)ccnc2cc1OCC1(N)CC1 | CYP3A4 | enzyme activity, inhibitor | – | together with: testosterone | – | IC50 | 2090 nM
FC(F)(F)C(F)(F)C(F)(F)C(F)(F)C(F)(F)C(F)(F)C(F)(F)C(F)(F)C(F)(F)C(F)(F)F | CYP3A4 | – | – | concentration not given | – | activity | inactive
CC(O)C(C)n1ncn(-c2ccc(N3CCN(c4ccc(OCC5COC(Cn6cncn6)(c6ccc(Cl)cc6Cl)O5)cc4)CC3)cc2)c1=O (stereo not shown) | CYP3A4 | substrate | – | – | – | Km | 0.027 µM
CC(O)C(C)n1ncn(-c2ccc(N3CCN(c4ccc(OCC5COC(Cn6cncn6)(c6ccc(Cl)cc6Cl)O5)cc4)CC3)cc2)c1=O (stereo not shown) | CYP3A4 | – | – | – | – | Km | 0.00417 µM
C=C(C)C(=O)OCCC(F)(F)C(F)(F)C(F)(F)C(F)(F)C(F)(F)C(F)(F)F | CYP3A4 | – | – | concentration not given | – | activity | inactive
CO[C@@H](C)Cn1c(=O)n(C)c2cnc3ccc(-c4cncc(C(C)(C)O)c4)cc3c21 | CYP3A4 | substrate depletion | – | – | – | fraction of hepatic clearance | 82%
C=CC[C@@H]1/C=C(\C)C[C@H](C)C[C@H](OC)[C@H]2O[C@@](O)(C(=O)C(=O)N3CCCC[C@H]3C(=O)O[C@H](/C(C)=C/[C@@H]3CC[C@@H](O)[C@H](OC)C3)[C@H](C)[C@@H](O)CC1=O)[C@H](C)C[C@@H]2OC | CYP3A4 | metabolism, substrate | – | unbound fraction unadjusted | – | Km | 1.5 µM
CC(O)C(C)n1ncn(-c2ccc(N3CCN(c4ccc(OCC5COC(Cn6cncn6)(c6ccc(Cl)cc6Cl)O5)cc4)CC3)cc2)c1=O (stereo not shown) | CYP3A4 | inhibitor | – | – | – | Ki | 14.4 nM
CC(C)Nc1nc2cc(Cl)c(Cl)cc2n1[C@H]1O[C@@H](CO)[C@H](O)[C@@H]1O | CYP3A4 | – | – | – | – | metabolism contribution | 70 to 85%
Nc1cc(C(F)(F)F)c(-c2nc(N3CCOCC3)nc(N3CCOCC3)n2)cn1 | Mitogen-activated protein kinase kinase kinase 1 (MAP3K1, Homo sapiens, UniProt Q13233) | enzyme activity | – | 10 µM | baseline: untreated | remaining activity | 100%
COC(=O)N[C@@H](C)CNc1nccc(-c2cn(C(C)C)nc2-c2cc(Cl)cc(NS(C)(=O)=O)c2F)n1 | CYP3A4 | – | – | single dose | – | contribution to oxidative clearance | ~83%
Cc1ccc(NC(=O)c2ccc(CN3CCN(C)CC3)cc2)cc1Nc1nc(-c2cccnc2)cs1 | CYP3A4 | reversible inhibitor | – | – | – | IC50 | 3860 nM
FC(F)OC(Cl)C(F)(F)F (stereo not shown) | CYP3A4 | inhibitor | – | Tox21 screening | – | IC50 | inactive
N#CCNC(=O)c1ccc(-c2ccnc(Nc3ccc(N4CCOCC4)cc3)n2)cc1 | CYP3A4 | – | human hepatocytes | – | – | contribution to metabolism | 36%
Fc1c(F)c(F)c(Br)c(F)c1F | CYP3A4 | – | – | concentration not given | – | activity | inactive
COCCc1ccc(OCC(O)CNC(C)C)cc1 (stereo not shown) | CYP3A4 | – | – | – | – | CLint | 0.02 µL/min/pmol

For quick reference, copied from above:
Structure (SMILES) | target | assay | system | setting | scale | quantity | result
Nc1cc(C(F)(F)F)c(-c2nc(N3CCOCC3)nc(N3CCOCC3)n2)cn1 | Mitogen-activated protein kinase kinase kinase 1 (MAP3K1, Homo sapiens, UniProt Q13233) | enzyme activity | – | 10 µM | baseline: untreated | remaining activity | 100%
